Published values gathered from unrelated publications.
Protocols differ between the studies behind these lines. Values joined by “and” are separate records of one study, mostly repeats; a detail may differ. Numbers after ± are the reported error.
NR4A1: Nuclear receptor subfamily 4 group A member 1 (NR4A1, Homo sapiens, UniProt P22736)
Tumor necrosis factor receptor superfamily member 9/Nectin-4: Tumor necrosis factor receptor superfamily member 9/Nectin-4 (Homo sapiens, UniProt Q07011+Q96NY8)
CSNK1A1/CRBN: Cereblon/Casein kinase I alpha (CSNK1A1/CRBN, Homo sapiens, UniProt P48729+Q96SW2)
T1: RNA, 2'-deoxy at 34-37 (Thermoanaerobacter tengcongensis); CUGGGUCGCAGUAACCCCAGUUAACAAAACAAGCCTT
T2: ssDNA, aptamer; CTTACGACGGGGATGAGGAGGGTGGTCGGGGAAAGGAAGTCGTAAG
T3: ssDNA, single strand; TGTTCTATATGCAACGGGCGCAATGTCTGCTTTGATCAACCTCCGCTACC
T4: riboswitch RNA yjdF aptamer (Bacillus subtilis); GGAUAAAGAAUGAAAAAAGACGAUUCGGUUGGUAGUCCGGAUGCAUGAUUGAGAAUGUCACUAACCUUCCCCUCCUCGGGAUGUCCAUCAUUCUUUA

| Compound | target | assay | system | conditions | scale | endpoint | result |
| --- | --- | --- | --- | --- | --- | --- | --- |
| O=C(C=Cc1ccc(F)cc1)Nc1cc(-c2ccnc(N3CCC(O)CC3)c2)ccn1 | NR4A1 | SPR | – | 10.0 µM | – | binding response | 25.2 RU |
| C[C@H]1O[C@@H](O[C@H]2CC[C@@]3(C)[C@@H](CC[C@]4(C)[C@@H]3C=CC3=C5CC(C)(C)CC[C@]5(CO)[C@@H](O)C[C@]34C)[C@]2(C)CO)[C@H](O)[C@@H](O[C@@H]2O[C@H](CO)[C@@H](O)[C@H](O)[C@H]2O)[C@H]1O | SIRT1 (Homo sapiens, UniProt Q96EB6) | binding, microscale thermophoresis | – | 140 nM | – | MST normalised fluorescence | 884 a.u. |
| COc1ccc(Cc2nnc(NS(=O)(=O)c3ccccc3)s2)cc1 | Glutathione hydrolase 1 proenzyme, without transmembrane domain (Homo sapiens, UniProt P19440) | GSH hydrolysis, uncompetitive inhibitor | – | 37 °C, binds gamma-glutamyl enzyme, added: GSH 5-20 µM | – | Kii | 376 ± 50 µM |
| O=c1ccn([C@H]2C[C@H](O)[C@@H](COP(=O)(O)OP(=O)(O)OP(=O)(O)O)O2)c(=O)[nH]1 | DNA-directed RNA polymerase subunit beta' / DNA-directed RNA polymerase subunit beta (rpoC/rpoB, Escherichia coli, UniProt P0A8T7+P0A8V2) | RNA extension, denaturing gel | Escherichia coli, elongation complex, 6-MI template | 5 µM, 10 min, 25 °C | – | incorporation efficiency | 85% |
| CCCC[C@@H]1NC(=O)[C@H](Cc2ccc(O)cc2)NC(=O)[C@@H]2CCCN2C(=O)[C@H](CC(=O)O)NC(=O)[C@H](C)NC(=O)[C@H](Cc2ccccc2)NC(=O)[C@@H]2CSCCC(=O)N3CN(CN(C3)C(=O)CCSC[C@@H](C(=O)N[C@@H](C)C(N)=O)NC1=O)C(=O)CCSC[C@H](NC(C)=O)C(=O)N[C@@H](CC(C)(C)C)C(=O)N1CCC[C@H]1C(=O)N[C@@H](CCC(=O)O)C(=O)N[C@H](CCCCNC(=O)CCc1cn(CCOCCOCCOCCOCCOCCOCCOCCOCCOCCOCCNC(=O)c3cc(C(=O)NCCOCCOCCOCCOCCOCCOCCOCCOCCOCCOCCn4cc(CCC(=O)NCCCC[C@H]5NC(=O)[C@H](CCC(=O)O)NC(=O)[C@@H]6CCCN6C(=O)[C@H](CC(C)(C)C)NC(=O)[C@@H](NC(C)=O)CSCCC(=O)N6CN7CN(C6)C(=O)CCSC[C@H](NC(=O)[C@H](Cc6ccc(O)cc6)NC(=O)[C@@H]6CCCN6C5=O)C(=O)N[C@@H](Cc5ccccc5)C(=O)N[C@@H](C)C(=O)N[C@@H](CC(=O)O)C(=O)N5CCC[C@H]5C(=O)N[C@@H](Cc5ccc(O)cc5)C(=O)N[C@@H](CCCC)C(=O)N[C@H](C(=O)N[C@@H](C)C(N)=O)CSCCC7=O)nn4)cc(C(=O)NCCOCCOCCOCCOCCOCCOCCOCCOCCOCCOCCn4cc(CCC(=O)N[C@H]5CSCCC(=O)N6CN7CN(C6)C(=O)CCSC[C@H](NC(=O)[C@@H](CC(=O)O)NC(=O)[C@H](Cc6cccc8ccccc68)NC(=O)[C@@H]6CCCN6C5=O)C(=O)N[C@@H](CCSC)C(=O)N[C@@H](CCCCNC(=N)N)C(=O)N[C@@H](CC(=O)O)C(=O)N[C@@H](Cc5c[nH]c6ccccc56)C(=O)N[C@@H](CO)C(=O)N[C@@H]([C@@H](C)O)C(=O)N5CCC[C@H]5C(=O)N5C[C@H](O)C[C@H]5C(=O)N[C@@H](Cc5c[nH]c6ccccc56)C(=O)N[C@H](C(N)=O)CSCCC7=O)nn4)c3)nn1)C(=O)N1CCC[C@H]1C(=O)N[C@@H](Cc1ccc(O)cc1)C(=O)N2 | Tumor necrosis factor receptor superfamily member 9/Nectin-4 | reporter gene, agonist | HT-1376 coculture with reporter cells | – | baseline: background | Emax | 64 fold |
| N[C@@H](Cc1c[nH]c2ccccc12)C(=O)O | Transcription attenuation protein MtrB (mtrB, Halalkalibacterium halodurans, UniProt Q9KCC6) | isothermal titration calorimetry | – | 25 °C, site 2 two-site model | – | ΔG | -34.7 ± 0.418 kJ/mol |
| CCCC[C@@H]1NC(=O)[C@H](Cc2ccc(O)cc2)NC(=O)[C@@H]2CCCN2C(=O)[C@H](CC(=O)O)NC(=O)[C@H](C)NC(=O)[C@H](Cc2ccccc2)NC(=O)[C@@H]2CSCCC(=O)N3CN(CN(C3)C(=O)CCSC[C@@H](C(=O)N[C@@H](C)C(N)=O)NC1=O)C(=O)CCSC[C@H](NC(C)=O)C(=O)N[C@@H](CC(C)(C)C)C(=O)N1CCC[C@H]1C(=O)N[C@@H](CCC(=O)O)C(=O)N[C@H](CCCCNC(=O)CCc1cn(CCOCCOCCOCCOCCOCCC(=O)N[C@H]3CSCCC(=O)N4CN5CN(C4)C(=O)CCSC[C@H](NC(=O)CNC(=O)[C@H](Cc4ccccc4)NC(=O)[C@@H]4CCCN4C3=O)C(=O)N[C@@H](CCSC)C(=O)N[C@@H](CCCCNC(=N)N)C(=O)N[C@@H](CC(=O)O)C(=O)N[C@@H](Cc3c[nH]c4ccccc34)C(=O)N[C@@H](CO)C(=O)N[C@@H]([C@@H](C)O)C(=O)N3CCC[C@H]3C(=O)N3C[C@H](O)C[C@H]3C(=O)N[C@@H](Cc3c[nH]c4ccccc34)C(=O)N[C@H](C(N)=O)CSCCC5=O)nn1)C(=O)N1CCC[C@H]1C(=O)N[C@@H](Cc1ccc(O)cc1)C(=O)N2 | Tumor necrosis factor receptor superfamily member 9/Nectin-4 | reporter gene, agonist | HT-1376 coculture with reporter cells | – | baseline: background | Emax | 33 fold |
| c1coc(-c2n[nH]cc2-c2ccnc3ccccc23)c1 | Serine/threonine-protein kinase CST20 (CST20, Candida albicans, UniProt P0CY24) | kinase binding, MIB/MS competition | Candida albicans lysate | 10 µM | baseline: DMSO, negative = stronger binding | log2 fold change | -0.78 |
| CCCCCCCC(=O)c1cc(OC)c(OC)c(OC)c1CC(=O)OCC | NR4A1 | reporter gene, Gal4 hybrid reporter | – | 10 µM | baseline: vehicle | activation | 0.84 fold |
| NCCCS(=O)(=O)O | SLC6A6 (Homo sapiens, UniProt P31641, Y138A) | binding, microscale thermophoresis | – | 500 µM, room temperature, added: 50 nM labelled protein | higher = more binding | normalised MST signal | 0.891 |
| CN1CCC(CNc2ccc3ncc(-c4cccc(OC(F)(F)F)c4)n3n2)CC1 | ADRA1A (Homo sapiens, UniProt P35348) | calcium flux | – | 10 µM | baseline: control | response | > 50% |
| Nc1ncnc2[nH]cnc12 | T1, RNA, 2'-deoxy at 34-37 (Thermoanaerobacter tengcongensis) | competitor, competitive displacement, Cy5 fluorescence | – | up to 500 µM | – | binding | no binding |
| Clc1cncc(OC[C@@H]2CN(CCN3CCc4ccccc43)CCO2)c1 | DRD4 (Homo sapiens, UniProt P21917) | radioligand binding | – | concentration not given, added: [3H]N-methylspiperone | – | inhibition | 97.3% |
| Nc1ncnc2c1ncn2[C@@H]1O[C@H](COP(=O)(O)CP(=O)(O)OP(=O)(O)O)[C@@H](O)[C@H]1O | P2X purinoceptor 1 (P2RX1, Homo sapiens, UniProt P51575, M214A) | saturation binding | HEK293 | 103 nM | – | specific binding | 1390 CCPM and 1450 CCPM and 2710 CCPM |
| [O-][S+]1CCCCS1 (stereo not shown) | SOD1 (Homo sapiens, UniProt P00441, G94A) | LC-MS | brain homogenate | 500 µM, 1 h, 37 °C | – | SOD1 dimer fraction | 83.5% |
| Nc1ncnc2c1ncn2[C@@H]1O[C@H](COP(=O)(O)O)[C@@H](O)[C@H]1O | T2, ssDNA, aptamer | ITC | – | – | – | Kd | 260 µM |
| CC(=O)N[C@H](C(=O)N1C[C@H](O)C[C@H]1C(=O)NCc1ccc(-c2scnc2C)cc1)C(C)(C)SCCCCCCNC(=O)C[C@@H]1N=C(c2ccc(Cl)cc2)c2c(sc(C)c2C)-n2c(C)nnc21 | Bromodomain-containing protein 2, BD2 (BRD2, Homo sapiens, UniProt P25440) | binding, ITC | – | 25 °C, compound in cell, protein in syringe | – | −TΔS | -5.98 ± 0.293 kJ/mol |
| COc1cccc2c1C(=O)c1c(O)c3c(c(O)c1C2=O)C[C@@](O)(C(=O)CO)C[C@@H]3O[C@H]1C[C@H](N)[C@H](O)[C@H](C)O1 | T3, ssDNA, single strand | DLS, TEM | – | qualitative | – | binding | binds |
| O=C1CCC(N2Cc3cc(NC(=O)c4cn5ccccc5n4)ccc3C2=O)C(=O)N1 (stereo not shown) | CSNK1A1/CRBN | degrader, Western blot | MOLT-4 | 1 µM | – | time to efficient degradation | ≤ 30 min |
| Cc1cc2nc3[nH]c(=O)[nH]c(=O)c3nc2cc1C | T4, riboswitch RNA yjdF aptamer (Bacillus subtilis) | fluorescence titration | – | added: 380 nM lumichrome | – | Kd | 0.8 µM |
| O=C1CCC(N2Cc3cc(CNC(=O)c4ccc(F)cc4)ccc3C2=O)C(=O)N1 (stereo not shown) | CSNK1A1/CRBN | degrader, live-cell HiBiT kinetic | HEK293 LgBiT | 10 µM | – | degradation rate constant | 0.1 h⁻¹ |
| CC(C)C(=O)Nc1n[nH]c2cc(-c3cccc(NS(=O)(=O)C4CC4)c3)ccc12 | PIP5K1C (Homo sapiens, UniProt O60331) | ADP-Glo | – | 123 nM, added: 10 µM ATP | – | ADP produced | 2.79 µM |
| CC1(C)CC2(C)OC(=O)NC2(C)c2ccccc21 (stereo not shown) | ATP-dependent RNA helicase DDX1 (Homo sapiens, UniProt Q92499) | binding, affinity selection mass spectrometry | – | – | baseline: other proteins in batch | fold enrichment | 1.03 |
| O=c1nc(SCc2cc(F)cc(C(F)(F)F)c2)nc(SCc2ccc3sccc3c2)[nH]1 | TOP2A (Homo sapiens, UniProt P11388) | ATPase activity | – | 15.6 µM, added: ATP 1 mM | – | ATP hydrolysis rate | 0.653 µM/min and 0.757 µM/min |
| Nc1nc2c(ncn2[C@@H]2O[C@H](COP(=O)(O)O)[C@@H](O)[C@H]2O)c(=O)[nH]1 | GUK1 (Homo sapiens, UniProt Q16774) | enzyme activity, NADH-coupled | – | 15.62 µM, added: NaCl 50 mM | – | reaction velocity | 0.00566 µM/s and 0.0304 µM/s and 0.0326 µM/s |
| Nc1nnc(-c2cccc(Cl)c2Cl)c(N)n1 | SCN5A (Homo sapiens, UniProt Q14524) | sodium current block kinetics | – | 280 µM | – | slow recovery component | 0% |
| O=C(C[C@@H](C(F)F)n1ccc(F)n1)N1CCC(O)(Cn2cnc3c(cnn3-c3ccc(F)cc3)c2=O)CC1 | USP7 (Homo sapiens, UniProt Q93009, V517Y) | isothermal titration calorimetry | – | concentration not given, USP7 V517Y | – | binding enthalpy | -111 ± 8.58 kJ/mol |
| Cc1cc(-c2cccc(-n3cc(COC(=O)[C@]4(C)C=C(C(=O)OC(C)(C)C)C(=O)CC4)nn3)c2)c(C)c2c1CNCC2 | MAPK8 (Homo sapiens, UniProt P45983) | D-peptide binding, inhibitor, FP peptide displacement | – | 6.25 µM | lower is stronger displacement | fraction bound | 0.749 |

Excerpt of the above:
| Compound | target | assay | system | conditions | scale | endpoint | result |
| --- | --- | --- | --- | --- | --- | --- | --- |
| Clc1cncc(OC[C@@H]2CN(CCN3CCc4ccccc43)CCO2)c1 | DRD4 (Homo sapiens, UniProt P21917) | radioligand binding | – | concentration not given, added: [3H]N-methylspiperone | – | inhibition | 97.3% |
| Nc1ncnc2c1ncn2[C@@H]1O[C@H](COP(=O)(O)CP(=O)(O)OP(=O)(O)O)[C@@H](O)[C@H]1O | P2X purinoceptor 1 (P2RX1, Homo sapiens, UniProt P51575, M214A) | saturation binding | HEK293 | 103 nM | – | specific binding | 1390 CCPM and 1450 CCPM and 2710 CCPM |
| [O-][S+]1CCCCS1 (stereo not shown) | SOD1 (Homo sapiens, UniProt P00441, G94A) | LC-MS | brain homogenate | 500 µM, 1 h, 37 °C | – | SOD1 dimer fraction | 83.5% |
| Nc1ncnc2c1ncn2[C@@H]1O[C@H](COP(=O)(O)O)[C@@H](O)[C@H]1O | T2, ssDNA, aptamer | ITC | – | – | – | Kd | 260 µM |
| CC(=O)N[C@H](C(=O)N1C[C@H](O)C[C@H]1C(=O)NCc1ccc(-c2scnc2C)cc1)C(C)(C)SCCCCCCNC(=O)C[C@@H]1N=C(c2ccc(Cl)cc2)c2c(sc(C)c2C)-n2c(C)nnc21 | Bromodomain-containing protein 2, BD2 (BRD2, Homo sapiens, UniProt P25440) | binding, ITC | – | 25 °C, compound in cell, protein in syringe | – | −TΔS | -5.98 ± 0.293 kJ/mol |
